Published values pooled from the literature.
Protocols differ between the studies behind these lines. Several values in a cell are separate wells, animals, samples, runs or records. ± marks the error that the study gave. In brackets after ≈: the same amount, converted by molar mass.
UniProt Q9HCG7, sequence (whole entry, looked up): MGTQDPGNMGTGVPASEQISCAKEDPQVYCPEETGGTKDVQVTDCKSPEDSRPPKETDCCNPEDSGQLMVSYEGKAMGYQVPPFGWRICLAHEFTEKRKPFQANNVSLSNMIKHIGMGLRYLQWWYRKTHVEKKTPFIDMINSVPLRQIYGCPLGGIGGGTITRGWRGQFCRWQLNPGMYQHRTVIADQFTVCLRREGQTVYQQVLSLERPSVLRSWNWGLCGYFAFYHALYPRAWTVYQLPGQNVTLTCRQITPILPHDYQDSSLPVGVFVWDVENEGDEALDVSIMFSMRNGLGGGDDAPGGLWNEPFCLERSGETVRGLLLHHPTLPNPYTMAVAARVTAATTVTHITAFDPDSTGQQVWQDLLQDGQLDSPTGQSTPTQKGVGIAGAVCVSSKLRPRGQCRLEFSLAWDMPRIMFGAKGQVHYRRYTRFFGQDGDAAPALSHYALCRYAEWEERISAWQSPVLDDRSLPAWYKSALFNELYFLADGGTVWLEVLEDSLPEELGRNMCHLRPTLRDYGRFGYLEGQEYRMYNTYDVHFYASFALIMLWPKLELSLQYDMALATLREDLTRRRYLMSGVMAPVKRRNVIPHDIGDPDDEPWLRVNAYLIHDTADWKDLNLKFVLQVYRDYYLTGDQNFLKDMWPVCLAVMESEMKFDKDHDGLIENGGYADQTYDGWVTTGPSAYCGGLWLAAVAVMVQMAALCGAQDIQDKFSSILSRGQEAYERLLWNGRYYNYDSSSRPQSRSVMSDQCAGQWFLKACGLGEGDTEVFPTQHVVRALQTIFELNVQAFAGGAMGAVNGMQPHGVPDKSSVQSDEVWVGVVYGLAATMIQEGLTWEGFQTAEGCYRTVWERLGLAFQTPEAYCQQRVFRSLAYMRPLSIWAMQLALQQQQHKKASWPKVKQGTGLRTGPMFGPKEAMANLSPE
UniProt Q16539, sequence (whole entry, looked up): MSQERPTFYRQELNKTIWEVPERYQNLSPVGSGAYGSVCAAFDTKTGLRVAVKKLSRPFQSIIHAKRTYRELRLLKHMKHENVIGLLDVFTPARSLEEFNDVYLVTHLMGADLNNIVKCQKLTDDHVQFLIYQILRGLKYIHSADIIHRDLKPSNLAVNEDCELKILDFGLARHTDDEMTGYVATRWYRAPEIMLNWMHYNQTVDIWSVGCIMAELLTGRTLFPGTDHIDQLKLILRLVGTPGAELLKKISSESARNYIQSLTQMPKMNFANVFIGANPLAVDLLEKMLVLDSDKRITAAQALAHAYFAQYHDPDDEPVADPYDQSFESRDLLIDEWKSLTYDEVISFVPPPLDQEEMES

SMILES	tested on	assay	system	setting	scale	quantity	result
COC1CN([C@H]2CC[C@H]([C@@]3(C)Oc4c(Cl)cc(C(=O)NCc5c(SC)cc(C)[nH]c5=O)c(C)c4O3)CC2)C1		RNA-seq, item: MMP14 mouse homolog	mouse, HT-1376 xenograft, whole blood	dose not given	baseline: vehicle	log2 fold change	0.0565
COC(=O)C1=CO[C@@H](C)[C@@H]2Cn3ccc4c5ccccc5nc-4c3C[C@H]12	Plasmodium falciparum	parasite growth	3D7	96 h, blood stage		IC50	212 nM
C[C@@H]1C(=O)O[C@@H](C)/C=C/C=C\[C@@H](C)[C@@H]2C=C[C@@H]3C[C@@]4(C)O[C@H]4[C@@H](C)[C@H]3[C@@H]2C(=O)C(Cl)(Cl)C1=O	Staphylococcus aureus		MSSA clinical isolate	resistant: CIP,DAP,ERY,MXF		MIC	0.0125 µg/mL (≈ 0.0252 µM)
CC1(F)CN(C(=O)Cn2c(=O)c(C(=O)NCc3ccc(Cl)cc3)cc3nc(N4CCN(CCN)C4=O)cnc32)C1	herpes simplex virus 2	viral cytopathic effect	Vero, G	120 h		EC50	760 nM
COC1C=COC2(C)Oc3c(C)c(O)c4c(c3C2=O)C2=NC3(CCN(CC(C)C)CC3)NC2=C(NC(=O)C(C)=CC=CC(C)C(O)C(C)C(O)C(C)C(OC(=O)c2cccnc2)C1C)C4=O (stereo not drawn)	Mycobacteroides abscessus	intracellular growth, visual read	THP-1 derived macrophages, ATCC 19977			IC90	340 nM
Cc1cccc2c1N(C(=O)n1ccnn1)CC2	Arabidopsis thaliana		kai2 mutant, seeds	3 µM		germination rate	16.7% and 40% and 10% and 34.6% and 15% and 19.4%
O=C(Oc1cc(OC(=O)c2cc(O)c(O)c(O)c2)c2ccccc2c1)c1cc(O)c(O)c(O)c1	herpes simplex virus 2			5 to 20 µM, HIV-1 co-infection		plaque number	decreased
C[N+](C)(C)CCO.O=C([O-])C(Cl)Cl	Amaranthus retroflexus	herbicidal activity		15 mg/mL, 21 days, post-emergence greenhouse		inhibition	0%
CCN(CC)CC#CCNc1ccnc2cc(Cl)ccc12	Salmonella typhimurium	mini-Ames test	TA100	500.0 µg/well, with rat liver S9		revertants	15 revertants/well
CCCCCCCCCC(=O)N[C@@H](Cc1c[nH]c2ccccc12)C(=O)N[C@H](CC(N)=O)C(=O)N[C@@H](CC(=O)O)C(=O)N[C@@H]1C(=O)NCC(=O)N[C@@H](CCCNC(=O)OC2/C=C/CCCCC2)C(=O)N[C@@H](CC(=O)O)C(=O)N[C@H](C)C(=O)N[C@@H](CC(=O)O)C(=O)NCC(=O)N[C@H](CO)C(=O)N[C@@H]([C@H](C)CC(=O)O)C(=O)N[C@@H](CC(=O)c2ccccc2N)C(=O)O[C@@H]1C (stereo partly drawn)	Staphylococcus aureus	planktonic bacterial growth, isothermal microcalorimetry	MRSA	3.0 µg/mL, 24 h, 37 °C, together with: TAG hydrogel		peak heat flow time	0 h
CCCCNCCO.O=C(O)C(Cl)Cl	Eclipta prostrata			15 mg/mL, 21 days, post-emergence, greenhouse		herbicidal inhibition	0%
OC[C@H]1[C@@H](O)[C@H](O)[C@@H](O)CN1CCCCCOCC(COCCCCCN1C[C@H](O)[C@@H](O)[C@H](O)[C@@H]1CO)C12CC3CC(CC(C3)C1)C2 (stereo partly drawn)	Beta-glucosidase (GBA2, Homo sapiens, UniProt Q9HCG7)	inhibitor, 4MU-β-D-glucopyranoside	HEK293T homogenates overexpressing GBA2		baseline: GBA1 IC50 over GBA2 IC50	selectivity ratio	33
FC(F)(F)c1cccc(CNc2nc(NC3CCN(Cc4ccccc4)CC3)c3nc[nH]c3n2)c1	Cryptococcus neoformans	RNA-seq, item: CNAG_02375	wild type	48 µg/mL, 3 h	baseline: untreated wild type	log2 fold change	0.486
CC(O)CNCC(C)O.O=C(O)C(Cl)Cl (stereo not drawn)	Eleusine indica			15 mg/mL, 21 days, post-emergence, greenhouse		herbicidal inhibition	0%
Cc1c(CN(C)C(=O)/C=C/c2cnc3c(c2)CC(N)C(=O)N3)oc2ccccc12 (stereo not drawn)	Klebsiella pneumoniae	broth microdilution	AR-0548			MIC	32 µg/mL (≈ 82 µM)
C=CC(=O)Nc1cccc(Cn2ncc3cnc(Nc4cnn(CCOC)c4)nc32)c1	PCTK1 human	binding, KINOMEscan		100 nM	lower = stronger binding	percent of control	86%
CNC(=O)C1CCCN(C(=O)C2CC3CCC2N3C(=O)[C@@H]2C[C@@H](O)CN2C(=O)NCc2cccc(Cl)c2F)C1 (mixture of isomers)	Cytochrome P450 2C9 (CYP2C9, Homo sapiens, UniProt P11712)	preincubation without NADPH	human	0.206 µM	baseline: negative control	remaining activity	98.2% and 95.1% and 102%
COC1C=COC2(C)Oc3c(C)c(O)c4c(c3C2=O)C2=NC3(CCN(CC(C)C)CC3)NC2=C(NC(=O)C(C)=CC=CC(C)C(O)C(C)C(O)C(C)C(OC(=O)Nc2cscn2)C1C)C4=O (stereo not drawn)	Mycobacteroides abscessus		ATCC 19977, caseum surrogate	5 d, non-replicating		MBC	0.5 µM (≈ 0.466 µg/mL)

SMILES	tested on	assay	system	setting	scale	quantity	result
CNCc1ccc2c(c1)N(C(=O)OCc1c(F)c(F)c(F)c(F)c1F)[C@H](CNC(=N)N)[C@H]2NC(=O)C(=O)Nc1ccc(Cl)c(F)c1	HIV-1	viral infection	TZM-bl, CRF02_AG 263-8 Env pseudovirus			IC50	320 nM
CN1CCCNC(=O)c2cccc(c2)C(=O)NCCCN(C)CCCNc2cccc3c2C(=O)c2cccc(c2C3=O)NCCC1	SAS	RNA-Seq, item: RHBDD2 mRNA		1 µM, 6 h	baseline: untreated cells	log2 fold change	-0.371
Cc1nc2c(NCc3cccc(S(C)(=O)=O)c3)nccn2c1-c1ccc(O)c(F)c1	Rhinovirus B	viral replication, high-content imaging	RV-B14			IC50	44 ± 26 nM
CNS(=O)(=O)Nc1nccc(Cc2c(C)c3ccc(Oc4ncccc4F)cc3oc2=O)c1F	RMG-V	cell viability, CellTiter-Glo		7 days		IC50	59.1 nM
O=C1C(NCCc2ccc(O)c(Br)c2)=CC2=NCCc3c[nH]c1c32	Babesia divergens	parasite growth, SYBR Green		60 h, blood stage		IC50	435 nM
Cc1nn(-c2cccc(N)c2)c(=O)c2cnc(Nc3ccc(N4CCNCC4)cc3)nc12	Mitogen-activated protein kinase 14 (MAPK14, Homo sapiens, UniProt Q16539)	SelectScreen kinase				IC50	757 nM
CC[C@H](C)[C@H](NC(=O)C[C@H](NC(=O)CN1CCN2CCN(CC1)CC(=O)[O][Al]([18F])[O]C(=O)C2)C(=O)O)C(=O)N[C@H]1CCc2cccc3c2N(C1=O)[C@H](C(=O)NCc1cn[nH]n1)C3	MC-38 tumour model		host not given, lung	30 min, tumour-bearing		tracer uptake	1.91 %ID/g
O=C1C(=O)c2[nH]cc3c2C(=C1Cl)NCC3	Babesia divergens	parasite growth, SYBR Green		60 h, blood stage		IC50	3700 nM
Nc1ncc(-c2cc(-c3cnn(CC(F)(F)F)c3)ncc2F)nc1C(=O)NC1CNCC(F)C1 (stereo not drawn)	PIM3	KINOMEscan		1 µM	baseline: DMSO control	remaining binding	53%
Fc1ccc2c(c1)c1nc3ccc(Br)cc3c-1cn2Cc1cn(-c2ccccc2I)nn1	Giardia duodenalis	UHPLC-Q-TOF-MS, item: PC(O-16:0/2:0)	trophozoites	IC50, 0.1757 h	baseline: 0.25% DMSO	fold change	1.74
Cc1ccc(S(=O)(=O)n2cc3c4c2C(=O)C(NCCc2ccc(O)cc2)=CC4=NCC3)cc1	Babesia divergens	parasite growth, SYBR Green		60 h, blood stage		IC50	159 nM
Cc1ncsc1-c1ccc(C(C)NC(=O)C2CC(O)CN2C(=O)C(NC(=O)CCCCCCCCCCN2CCCC(Nc3ncc(Cl)c(Nc4ccccc4S(=O)(=O)C(C)C)n3)C2)C(C)(C)C)cc1 (stereo not drawn)	22Rv1	RNA-seq, item: TAOK3 mRNA		concentration not given	baseline: DMSO	log2 fold change	-1
CN(Cc1ccc(C2(C(F)(F)F)CCC2)cc1)Cc1cccc2ccccc12	Trichophyton rubrum	microbial growth, disc diffusion	ATCC28188	0.004 µg/mL, 6 days		inhibition zone	15.5 mm
C=C[C@]1(C)C[C@@H](OC(=O)CSc2ccc(NC(=O)c3ccco3)cc2)[C@]2(C)[C@H](C)CC[C@]3(CCC(=O)[C@H]32)[C@@H](C)[C@@H]1O	Mycoplasma gallisepticum		infected chickens	intramuscular, 50 mg/kg daily x3, scale 0 to 4	direction not given	air sac lesion score	1 and 2 and 0 and 3
COC1C=COC2(C)Oc3c(C)c(O)c4c(c3C2=O)C2=NC3(CCN(CC(C)C)CC3)NC2=C(NC(=O)C(C)=CC=CC(C)C(O)C(C)C(O)C(C)C(OC(=O)Nc2cnccn2)C1C)C4=O (stereo not drawn)	Mycobacteroides abscessus	bacterial growth	subsp. massiliense 095 clinical isolate	mixed morphotype		IC90	744 nM
CC(C)C[C@H](NC(=O)[C@H](Cc1ccc(O)cc1)NC(=O)[C@@H](CCCNC(=N)N)NC(=O)[C@@H](CO)NC(=O)[C@H](Cc1ccccc1)NC(=O)[C@H](CC1CCCCC1)NC(=O)[C@H](CC(=O)O)NC(=O)CN1CCN(CC(=O)O)CCN(CC(=O)O)CCN(CC(=O)O)CC1)C(=O)N[C@@H](Cc1c[nH]c2ccccc12)C(=O)N[C@@H](CO)C(=O)O [copper-64 labelled]			human, red marrow	concentration not given, 24 h		activity concentration	508 Bq/mL and 327 Bq/mL and 490 Bq/mL and 279 Bq/mL and 494 Bq/mL and 558 Bq/mL
C=C(NC(=O)c1csc(-c2nc3c(cc2O)-c2nc(cs2)C(=O)NC(C(C)O)C(=O)NC(=C(C)OC)c2nc(cs2)C(=O)NC2c4nc(cs4)C(=O)NC(COC(=O)c4c5c6c(cccc6n4O)COC(=O)C(OC4CC(C)(O)C(N(C)C)C(C)O4)C2OC5)c2nc-3cs2)n1)C(N)=O (stereo not drawn)	Streptococcus pneumoniae		-25, immunocompromised mice, lung infection	qd dosing		ED50	4.8 mg/kg
CNCc1ccc2c(c1)C[C@H](CNC(=N)N)[C@H]2NC(=O)C(=O)Nc1ccc(Cl)c(F)c1	HIV-1	pseudovirus infection, Env pseudovirus neutralisation	TZM-bl, clade G isolate C1_B5			IC80	40400 nM

Excerpt of the above:
SMILES	tested on	assay	system	setting	scale	quantity	result
OC[C@H]1[C@@H](O)[C@H](O)[C@@H](O)CN1CCCCCOCC(COCCCCCN1C[C@H](O)[C@@H](O)[C@H](O)[C@@H]1CO)C12CC3CC(CC(C3)C1)C2 (stereo partly drawn)	Beta-glucosidase (GBA2, Homo sapiens, UniProt Q9HCG7)	inhibitor, 4MU-β-D-glucopyranoside	HEK293T homogenates overexpressing GBA2		baseline: GBA1 IC50 over GBA2 IC50	selectivity ratio	33
O=C(Oc1cc(OC(=O)c2cc(O)c(O)c(O)c2)c2ccccc2c1)c1cc(O)c(O)c(O)c1	herpes simplex virus 2			5 to 20 µM, HIV-1 co-infection		plaque number	decreased
O=C1C(NCCc2ccc(O)c(Br)c2)=CC2=NCCc3c[nH]c1c32	Babesia divergens	parasite growth, SYBR Green		60 h, blood stage		IC50	435 nM
